{"data": "Experimental data of several laboratories", "cell line": "MCF7", "note": "Lines come from different studies, so protocols differ. ± gives the spread as reported."}
{"Structure (SMILES)": "CCN1CCN(CC(=O)N2CCN(CC(OCc3ccc4ccccc4c3)c3ccc(Cl)cc3Cl)CC2)CC1 (stereo not shown)", "assay": "cell growth or viability, MTT", "setting": "24 h", "IC50": "> 50 µM"}
{"Structure (SMILES)": "Cn1ncc(-c2ccc3c(=O)[nH]nc(CN)c3c2)c1-c1c(F)c(Cl)cc(OC2CC2)c1C#N", "assay": "cell viability, inhibitor, CellTiter-Glo", "setting": "120 h, baseline-subtracted", "IC50": "0.005 µM"}
{"Structure (SMILES)": "O=C(c1ccc(Br)cc1)N1CCN(CC(OCc2ccc3ccccc3c2)c2ccc(Cl)cc2Cl)CC1 (stereo not shown)", "assay": "cell growth or viability, MTT", "setting": "24 h", "IC50": "> 50 µM"}
{"Structure (SMILES)": "COc1ccc(CN2C3(NC(c4ccc(OC)cc4)C24C(=O)Nc2ccccc24)C(=O)Nc2ccccc23)cc1 (stereo not shown)", "assay": "cell growth or viability, MTT", "setting": "48 h", "IC50": "61.4 µM"}
{"Structure (SMILES)": "CC(C)c1ccc(N(C)c2ccc3c(c2)OCC[C@H]3CNc2cnccc2C(=O)O)cc1", "assay": "cell growth or viability, MTS", "setting": "7 days", "IC50": "0.037 µM"}
{"Structure (SMILES)": "COc1cccc(N2C(=O)CS/C2=N\\N=C\\c2cccc3cc4ccccc4nc23)c1", "assay": "cell growth or viability, MTT", "setting": "48 h", "IC50": "> 50 µM"}
{"Structure (SMILES)": "COc1ccc(C(=O)N2CCN(CC(OCc3ccc4ccccc4c3)c3ccc(Cl)cc3Cl)CC2)cc1 (stereo not shown)", "assay": "cell growth or viability, MTT", "setting": "24 h", "IC50": "42.1 µM"}
{"Structure (SMILES)": "Cc1c(COc2cc(OCc3cccc(C#N)c3)c(CN3CCCC[C@@H]3C(=O)O)cc2Cl)cccc1-c1cccc(OCCCCCC(=O)NO)c1", "assay": "cell growth or viability, CCK-8", "setting": "48 h", "IC50": "> 20 µM"}
{"Structure (SMILES)": "CC(C)(C)OC(=O)N1CCN(CC(OCc2ccc3ccccc3c2)c2ccc(Cl)cc2Cl)CC1 (stereo not shown)", "assay": "cell growth or viability, MTT", "setting": "24 h", "IC50": "25.4 µM"}
{"Structure (SMILES)": "CN1C(=O)/C(=N\\c2ccc(Cl)cc2Br)c2ccccc21", "assay": "cell growth or viability, MTT", "setting": "48 h", "IC50": "30.4 µM"}
{"Structure (SMILES)": "Nc1ncc(-c2nc(N3CCOCC3)nc(N3CCN(C(=O)CCC(=O)N4CCN(CCCCCCNc5cccc6c5C(=O)N(C5CCC(=O)NC5=O)C6=O)CC4)CC3)n2)c(C(F)F)n1 (stereo not shown)", "assay": "inhibitor, In-Cell Western, item: Akt pSer473", "setting": "2 h", "IC50": "0.0118 µM"}
{"Structure (SMILES)": "Cc1c(COc2cc(OCc3cccc(C#N)c3)c(CNC(CO)(CO)CO)cc2Cl)cccc1-c1cccc(OCCCCCC(=O)NO)c1", "assay": "cell growth or viability, CCK-8", "setting": "48 h", "IC50": "5.95 µM"}
{"Structure (SMILES)": "CCC(=CCc1c(O)cc2c(c1O)C(=O)CC(c1ccccc1O)O2)CC (stereo not shown)", "assay": "cytotoxicity, MTT", "setting": "48 h, as reported", "IC50": "70.5 ± 8.2 µM"}
{"Structure (SMILES)": "O=[N+]([O-])c1ccc(C=NNC(=S)Nc2ccccc2)o1", "assay": "cell growth or viability, resazurin", "IC50": "> 100 µM"}
{"Structure (SMILES)": "CCOC(=O)/C=C1\\S/C(=N\\N=C\\c2cccc3cc4ccccc4nc23)N(c2ccc([N+](=O)[O-])cc2)C1=O", "assay": "cell growth or viability, MTT", "setting": "48 h", "IC50": "> 50 µM"}
{"Structure (SMILES)": "CC(=O)N[C@@H](CCCNC(=N)N)C(=O)N[C@@H](Cc1c[nH]c2ccccc12)C(=O)N[C@@H](CCCNC(=N)N)C(=O)N[C@@H](Cc1c[nH]c2ccccc12)C(=O)N[C@@H](CCCNC(=N)N)C(=O)N[C@@H](Cc1c[nH]c2ccccc12)C(N)=O", "assay": "cell viability", "setting": "48 h, light irradiation 2.5 min", "IC50": "> 100 µM"}
{"Structure (SMILES)": "COc1ccnc(-c2cc(OC)ccn2)c1.[Co+2].[O-]c1c(I)cc(I)c2cccnc12.[O-]c1c(I)cc(I)c2cccnc12", "assay": "cell growth or viability, MTT", "setting": "48 h", "IC50": "23.5 µM"}
{"Structure (SMILES)": "CCOc1cncc(-c2ccc(NC(=O)C3(c4ccnc(NS(=O)(=O)C5CC5)n4)CCOCC3)nc2)n1", "assay": "cell growth or viability, ATP luminescence", "setting": "72 h", "IC50": "0.035 µM"}
{"Structure (SMILES)": "c1ccc(-c2ccnc3c2ccc2c(-c4ccccc4)ccnc23)cc1", "assay": "cell growth or viability, MTT", "setting": "48 h", "IC50": "> 50 µM"}
{"Structure (SMILES)": "NC(NN=Cc1ccc([N+](=O)[O-])o1)=[S+][Au-][Cl]", "assay": "cell growth or viability, resazurin", "IC50": "44.6 µM"}
{"Structure (SMILES)": "C=CCc1c(O)cc2c(c1O)C(=O)CC(c1ccc(O)cc1)O2 (stereo not shown)", "assay": "cytotoxicity, MTT", "setting": "48 h, sigmoidal fit", "IC50": "114 µM"}
{"Structure (SMILES)": "CSc1sc2c3ccccc3c3ccccc3[n+]2c1C(=O)c1ccccc1", "assay": "cell growth or viability, MTT", "setting": "72 h", "IC50": "17 µM"}
{"Structure (SMILES)": "CC(=O)[O][Pd][c]1cc(C)ccc1N1N=C(C)C(C)(C)C1=O.CC(=O)[O][Pd][c]1cc(C)ccc1N1N=C(C)C(C)(C)C1=O", "assay": "cell growth or viability, MTT", "IC50": "30.6 µM"}
{"Structure (SMILES)": "FC(F)(F)C1(c2ccc(CN3CCN(C(c4ccccc4)c4ccc(Cl)cc4)CC3)cc2)CCC1 (stereo not shown)", "assay": "cell growth", "setting": "72 h", "IC50": "102 ± 13.4 µM"}
{"Structure (SMILES)": "COc1cccc(CNC[C@@](O)(COCc2ccccc2)[C@@H]2CC[C@@H](C)C[C@H]2OCc2ccccc2)c1", "assay": "cell growth or viability, MTT", "setting": "72 h", "IC50": "1.48 µM"}
{"Structure (SMILES)": "Clc1ccnc2c1ccc1c(Cl)ccnc12.[Co+2].[O-]c1c(I)cc(I)c2cccnc12.[O-]c1c(I)cc(I)c2cccnc12", "assay": "cell growth or viability, MTT", "setting": "48 h", "IC50": "26 µM"}
{"Structure (SMILES)": "Cc1ccc(C(=O)N2CCN(CC(OCc3ccc4ccccc4c3)c3ccc(Cl)cc3Cl)CC2)cc1 (stereo not shown)", "assay": "cell growth or viability, MTT", "setting": "24 h", "IC50": "38.4 µM"}
{"Structure (SMILES)": "O=C1Nc2ccccc2C12NC(c1ccc(F)cc1)C1(C(=O)Nc3ccccc31)N2Cc1ccc(F)cc1 (stereo not shown)", "assay": "cell growth or viability, MTT", "setting": "48 h", "IC50": "32.1 µM"}
{"Structure (SMILES)": "COc1ccc(COC[C@](O)(CNCc2ccc(F)cc2)[C@@H]2CC[C@@H](C)C[C@H]2OCc2ccc(OC)cc2)cc1", "assay": "cell growth or viability, MTT", "setting": "72 h", "IC50": "1.32 µM"}
{"Structure (SMILES)": "Cc1nc(Nc2ccc3c(c2)/C(=C/c2ccccc2)C(=O)N3)c2ccccc2n1", "assay": "cell growth or viability, MTT", "IC50": "31.3 µM"}
{"Structure (SMILES)": "Nc1cc2cccnc2c2ncccc12.[Cl-].[Cl-].[Ru+2].c1cnc2c(c1)ccc1cccnc12.c1cnc2c(c1)ccc1cccnc12", "assay": "cell viability, MTT", "setting": "1 h preincubation, then 48 h, added: blue light", "IC50": "56.8 ± 1.22 µM"}
{"Structure (SMILES)": "O=C1/C(=N\\c2ccc(Cl)cc2Br)c2ccccc2N1Cc1cccc(Cl)c1 (mixture of isomers)", "assay": "cell growth or viability, MTT", "setting": "48 h", "IC50": "7.39 µM"}
{"Structure (SMILES)": "Cc1ccc([N+](=O)[O-])cc1S(=O)(=O)N(C)/N=C/c1cnc2ccc(Br)cn12", "assay": "cell growth or viability", "IC50": "0.238 µM"}
{"Structure (SMILES)": "O=C1/C(=N\\c2ccccc2Br)c2ccccc2N1Cc1ccc([N+](=O)[O-])cc1", "assay": "cell growth or viability, MTT", "setting": "48 h", "IC50": "2.9 µM"}
{"Structure (SMILES)": "COc1ccccc1/C=C1\\C(=O)N(C)c2ccc(Nc3nc(C)nc4ccccc34)cc21", "assay": "cell growth or viability, MTT", "IC50": "9.73 µM"}
{"Structure (SMILES)": "CCC(=CCc1c(O)cc2c(c1O)C(=O)CC(c1ccc(O)cc1)O2)CC (stereo not shown)", "assay": "cell growth or viability, MTT", "setting": "48 h", "IC50": "20.6 µM"}
{"Structure (SMILES)": "NC(=O)c1ccc(-c2ccccc2Cl)c2c3c([nH]c12)CC[C@H](N)C3", "assay": "cell growth or viability", "IC50": "0.0288 µM"}
{"Structure (SMILES)": "CC(C)CN(CC(=O)N1CCN(CC(OCc2ccc3ccccc3c2)c2ccc(Cl)cc2Cl)CC1)CC(C)C (stereo not shown)", "assay": "cell growth or viability, MTT", "setting": "24 h", "IC50": "4.69 µM"}
{"Structure (SMILES)": "Nc1ncc(-c2nc(N3CCOCC3)nc(N3CCN(C(=O)CCC(=O)NCCCCCCCCC#Cc4cccc5c4C(=O)N(C4CCC(=O)NC4=O)C5=O)CC3)n2)c(C(F)F)n1 (stereo not shown)", "assay": "inhibitor, In-Cell Western, item: Akt pSer473", "setting": "2 h", "IC50": "0.0312 µM"}
{"Structure (SMILES)": "Cc1ccc2c(Cl)cc(Cl)c([O-])c2n1.Cc1ccc2c(Cl)cc(Cl)c([O-])c2n1.[Co+2].c1ccc(-c2ccccn2)nc1", "assay": "cell growth or viability, MTT", "setting": "48 h", "IC50": "10.5 µM"}
{"Structure (SMILES)": "COc1ccc(COC[C@](O)(CNCc2ccccc2)[C@@H]2CC[C@@H](C)C[C@H]2OCc2ccc(OC)cc2)cc1", "assay": "cell growth or viability, MTT", "setting": "72 h", "IC50": "1.49 µM"}
{"Structure (SMILES)": "Nc1ncc(-c2nc(N3CCOCC3)nc(N3CCN(C(=O)CCC(=O)NCCCCCCCCCNc4cccc5c4C(=O)N(C4CCC(=O)NC4=O)C5=O)CC3)n2)c(C(F)F)n1 (stereo not shown)", "assay": "inhibitor, In-Cell Western, item: Akt pSer473", "setting": "2 h", "IC50": "0.0375 µM"}
{"Structure (SMILES)": "COc1ccc(N2C(=O)CS/C2=N\\N=C\\c2cccc3cc4ccccc4nc23)cc1", "assay": "cell growth or viability, MTT", "setting": "48 h", "IC50": "> 50 µM"}
{"Structure (SMILES)": "O=C(c1ccncc1)N1CCN(CC(OCc2ccc3ccccc3c2)c2ccc(Cl)cc2Cl)CC1 (stereo not shown)", "assay": "cell growth or viability, MTT", "setting": "24 h", "IC50": "40 µM"}
{"Structure (SMILES)": "O=C1CS/C(=N\\N=C\\c2cccc3cc4ccccc4nc23)N1c1ccc(F)cc1", "assay": "cell growth or viability, MTT", "setting": "48 h", "IC50": "> 50 µM"}
{"Structure (SMILES)": "Cc1cc2c(F)c(OS(=O)(=O)Oc3ccc4c(c3)CC[C@@H]3[C@@H]4CC[C@]4(C)C(=O)CC[C@@H]34)ccc2[nH]1", "setting": "72 h", "IC50": "6.6 µM"}
{"note": "Repeated from above:"}
{"Structure (SMILES)": "CCOC(=O)/C=C1\\S/C(=N\\N=C\\c2cccc3cc4ccccc4nc23)N(c2ccc([N+](=O)[O-])cc2)C1=O", "assay": "cell growth or viability, MTT", "setting": "48 h", "IC50": "> 50 µM"}
{"Structure (SMILES)": "CC(=O)N[C@@H](CCCNC(=N)N)C(=O)N[C@@H](Cc1c[nH]c2ccccc12)C(=O)N[C@@H](CCCNC(=N)N)C(=O)N[C@@H](Cc1c[nH]c2ccccc12)C(=O)N[C@@H](CCCNC(=N)N)C(=O)N[C@@H](Cc1c[nH]c2ccccc12)C(N)=O", "assay": "cell viability", "setting": "48 h, light irradiation 2.5 min", "IC50": "> 100 µM"}
{"Structure (SMILES)": "COc1ccnc(-c2cc(OC)ccn2)c1.[Co+2].[O-]c1c(I)cc(I)c2cccnc12.[O-]c1c(I)cc(I)c2cccnc12", "assay": "cell growth or viability, MTT", "setting": "48 h", "IC50": "23.5 µM"}
{"Structure (SMILES)": "CCOc1cncc(-c2ccc(NC(=O)C3(c4ccnc(NS(=O)(=O)C5CC5)n4)CCOCC3)nc2)n1", "assay": "cell growth or viability, ATP luminescence", "setting": "72 h", "IC50": "0.035 µM"}
